Published values collected from several papers.
A part holds a random share of what one study measured.

Set 1 — technique: protein binding microarray; form: double-stranded DNA, one strand shown; matrix: in vitro; concentration: not given; relative to: not given; reading: higher = stronger binding
Target: Histone acetyltransferase KAT6A, winged helix 2, GST fusion (KAT6A, Homo sapiens, UniProt Q92794, residues 85-181)
Setting: 8-mer, flanks averaged, mean of 2 arrays, mostly near background
Residues (chain): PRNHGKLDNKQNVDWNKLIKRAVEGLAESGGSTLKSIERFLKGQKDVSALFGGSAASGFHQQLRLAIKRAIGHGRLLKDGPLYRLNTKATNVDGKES
Strand	E-score
ACCAAGAA	0.198
TCGTACAA	-0.0241
AATATAAA	0.147
CCTCCAGC	0.00732
CAAATAGA	-0.0423

Set 2 — technique: competition protein-binding microarray; form: double-stranded DNA, one strand shown; matrix: in vitro; concentration: 2 µM; with: Pho4 competitor, 0.05 µM; reading: higher = stronger binding; shared flanks, not repeated: … GTCTTGATTCGCTTGACGCTGCTG
Target: Centromere-binding protein 1, full length, His-tagged (CBF1, Saccharomyces cerevisiae, UniProt P17106, residues 1-351)
UniProt P17106, sequence (whole entry, looked up): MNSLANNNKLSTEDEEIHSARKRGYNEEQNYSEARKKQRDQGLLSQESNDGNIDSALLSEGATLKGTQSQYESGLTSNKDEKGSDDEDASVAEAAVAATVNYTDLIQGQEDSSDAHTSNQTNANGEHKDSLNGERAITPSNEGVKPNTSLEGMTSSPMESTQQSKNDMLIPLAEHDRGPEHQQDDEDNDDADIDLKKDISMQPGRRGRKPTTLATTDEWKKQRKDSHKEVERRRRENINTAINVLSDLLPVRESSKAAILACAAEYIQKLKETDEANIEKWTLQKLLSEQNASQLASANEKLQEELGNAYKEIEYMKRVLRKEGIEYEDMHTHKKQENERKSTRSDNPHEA
Setting: whole 60-bp probe, lowest competitor level
Strand	fluorescence intensity
AAAAAATGTGAATTGCACATGCCCAGCGCGCTCGCA	114 a.u.
ATTTTCCTGATCCCAAATGTGACGCCCAACATGGCA	71.7 a.u.
ACTAATGCAGGCAGAAGGAGATCCATACCTTCAAAT	66.8 a.u.
CAGGGGGACTCATCTCTCGTGAAGATCCAGGCTATG	54.2 a.u.
CGGATCGCGCTGACGCACGCTGCGTTTACCAAACTT	60.8 a.u.

Set 3 — technique: protein-binding microarray; form: double-stranded DNA, one strand shown; matrix: in vitro; concentration: 2200 nM top; setting: 60-bp whole probe; with: salmon DNA 0.4 mg/ml; relative to: random background probes; reading: higher = stronger binding
Target: Interferon regulatory factor 7, full length, phosphomimetic (IRF7, Homo sapiens, UniProt Q92985, residues 1-503, S471D/S472D/S475D/S476D/S477D/S483D/S484D/S487D)
Shared flanks, not repeated: GCCTAGCAC … GTGCTAGGTCTTGATTCGCTTGACGCTGCTG
Target sequence (chain): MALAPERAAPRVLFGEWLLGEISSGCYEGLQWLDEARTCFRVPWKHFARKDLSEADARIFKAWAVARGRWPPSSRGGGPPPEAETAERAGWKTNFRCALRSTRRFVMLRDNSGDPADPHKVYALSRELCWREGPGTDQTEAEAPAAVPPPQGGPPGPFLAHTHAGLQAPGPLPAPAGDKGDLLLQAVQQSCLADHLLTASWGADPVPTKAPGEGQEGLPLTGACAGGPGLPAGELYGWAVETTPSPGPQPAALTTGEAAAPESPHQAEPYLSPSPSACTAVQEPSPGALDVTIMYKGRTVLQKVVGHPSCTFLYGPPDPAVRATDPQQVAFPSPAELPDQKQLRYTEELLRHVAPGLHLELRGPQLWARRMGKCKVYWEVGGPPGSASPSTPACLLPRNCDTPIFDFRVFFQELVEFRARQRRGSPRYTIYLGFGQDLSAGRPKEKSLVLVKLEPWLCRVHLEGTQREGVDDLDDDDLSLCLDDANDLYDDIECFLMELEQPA
Strand	fitted relative affinity [z-score]
TCAGCTTTCCTTTATGTACT	2.32
TTAGAACTGAGTCGCGATTA	-0.322
GACGGTCTCGGGTTCGGGAC	0.266
GACGGCTTCCTTTTCCTGAC	1.32
TCATTTCTGAATGTCCTACT	2.31

Mixed results
Substance	target	test	test system	setting	how to read	endpoint	result
PhoQ, residues 284 288 289 292 302 303 SLSVQF	PhoP, residues 12 14 15 18 19 SQCLL (Escherichia coli, UniProt P23836)	Sort-seq, refers to: YFP reporter	E. coli	PhoQ-PhoP variant library, with: 10 µM Mg2+	relative to: high Mg2+ state, higher = stronger signaling	fold induction	64

Repeated from above (set 2):
Strand	fluorescence intensity
ACTAATGCAGGCAGAAGGAGATCCATACCTTCAAAT	66.8 a.u.
CAGGGGGACTCATCTCTCGTGAAGATCCAGGCTATG	54.2 a.u.
